Published values of several laboratories.
Every numbered part comes from another study and shows a few of its results, in no order. Positions count from the first letter of the parent shown.

Set 1
Target: Prothrombin, mature alpha-thrombin (F2, Homo sapiens, UniProt P00734)
Technique: aptamer microarray, sandwich
Form: DNA with 2'F-ANA
Sample: in vitro
Tested at: 200 nM
Setting: whole 15-mer aptamer, many near background
Added: Cy3 exosite-II aptamer, 400 nM
Direction: higher = stronger binding
Sequence: GGTTGGTGTGGTTGG
| Modification | mean fluorescence intensity |
| --- | --- |
| 2'F-ANA at 1 2 4 11 15 | 94.1 a.u. |
| 2'F-ANA at 1 3 4 5 9 12 13 14 | 69.1 a.u. |
| 2'F-ANA at 3 4 5 6 8 9 15 | 114 a.u. |
| 2'F-ANA at 1 2 4 8 9 10 15 | 53.5 a.u. |
| 2'F-ANA at 3 7 8 9 10 11 13 15 | 514 a.u. |
| 2'F-ANA at 2 7 9 11 12 14 | 214 a.u. |
| 2'F-ANA at 3 4 6 8 10 11 12 13 14 15 | 128 a.u. |
| 2'F-ANA at 1 2 3 5 6 10 | 65.9 a.u. |
| 2'F-ANA at 1 2 3 5 7 8 12 13 14 | 47.2 a.u. |
| 2'F-ANA at 1 2 3 5 6 7 8 12 13 14 15 | 51.2 a.u. |
| 2'F-ANA at 2 3 9 10 11 12 13 14 | 294 a.u. |
| 2'F-ANA at 2 3 4 6 8 10 12 14 15 | 148 a.u. |
| 2'F-ANA at 5 6 7 8 12 15 | 191 a.u. |
| 2'F-ANA at 2 4 7 9 10 11 13 14 15 | 63.1 a.u. |
| 2'F-ANA at 2 4 5 8 10 11 12 13 14 15 | 47.7 a.u. |
| 2'F-ANA at 1 2 4 5 6 8 10 11 13 14 15 | 75.3 a.u. |
| 2'F-ANA at 1 2 5 7 9 10 13 14 15 | 46.7 a.u. |

Set 2
Target: Interferon regulatory factor 3, full length, phosphomimetic (IRF3, Homo sapiens, UniProt Q14653, residues 1-427, S386D/S396D/S398D/S402D/T404D/S405D)
Technique: protein-binding microarray
Form: double-stranded DNA, one strand shown
Sample: in vitro
Tested at: 2540 nM top
Setting: 60-bp whole probe
Added: salmon DNA 0.4 mg/ml
Reference: random background probes
Direction: higher = stronger binding
All sequences stand within: GCCTAGCAC … GTCTTGATTCGCTTGACGCTGCTG
Target sequence (chain): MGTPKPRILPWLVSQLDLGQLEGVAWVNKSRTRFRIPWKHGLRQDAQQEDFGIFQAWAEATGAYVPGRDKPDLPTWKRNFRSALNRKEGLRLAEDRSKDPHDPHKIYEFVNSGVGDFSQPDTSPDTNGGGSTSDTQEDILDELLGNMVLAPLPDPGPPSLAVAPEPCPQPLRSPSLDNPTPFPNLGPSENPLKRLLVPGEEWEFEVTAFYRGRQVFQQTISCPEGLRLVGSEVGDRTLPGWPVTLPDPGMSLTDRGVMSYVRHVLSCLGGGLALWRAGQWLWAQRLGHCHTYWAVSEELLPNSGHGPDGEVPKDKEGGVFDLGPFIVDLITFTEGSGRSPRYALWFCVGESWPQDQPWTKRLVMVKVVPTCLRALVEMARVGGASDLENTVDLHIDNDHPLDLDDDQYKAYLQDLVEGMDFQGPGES
| Sequence | fitted relative affinity [z-score] |
| --- | --- |
| GCCGATTTCGGGTTTCGAGACGTGCTA | 3.58 |
| TCACAGCTATTTTTAGGACTGTGCTAG | 0.00751 |
| TTAGGTATCGGTTTCGGTTGGTGCTAG | 7.31 |
| AAATCATTTTCTCTGTTCTAGTGCTAG | 2.16 |
| TTAGGACTGCTTATCCGTTAGTGCTAG | -0.224 |
| TCAATTTTGTTCATCATACTGTGCTAG | 0.543 |
| GACGATATCTGTATCGAGACGTGCTAG | 0.676 |
| TTAGGAGTGGACTTTCGGTTAGTGCTA | 1.2 |
| TCAGCCCTCGGTTTACAACTGTGCTAG | -0.2 |
| TCAAGTTGTACTTTCTAACTGTGCTAG | 1.75 |
| ATTTTTTTTAGTGGATGAAAGTGCTAG | 0.743 |
| GTAGATGCCTTTCTCTTGGAGTGCTAG | 4.51 |
| TTAAATATCGGGTTTCGATTAGTGCTA | 2.32 |
| TTTTTTTTTTTTTTTGGAATGTGCTAG | 1.6 |

Set 3
Target: Ras GTPase-activating protein-binding protein 1, RRM domain (G3BP1, Homo sapiens, UniProt Q13283)
Chain of UniProt Q13283 (whole entry, looked up): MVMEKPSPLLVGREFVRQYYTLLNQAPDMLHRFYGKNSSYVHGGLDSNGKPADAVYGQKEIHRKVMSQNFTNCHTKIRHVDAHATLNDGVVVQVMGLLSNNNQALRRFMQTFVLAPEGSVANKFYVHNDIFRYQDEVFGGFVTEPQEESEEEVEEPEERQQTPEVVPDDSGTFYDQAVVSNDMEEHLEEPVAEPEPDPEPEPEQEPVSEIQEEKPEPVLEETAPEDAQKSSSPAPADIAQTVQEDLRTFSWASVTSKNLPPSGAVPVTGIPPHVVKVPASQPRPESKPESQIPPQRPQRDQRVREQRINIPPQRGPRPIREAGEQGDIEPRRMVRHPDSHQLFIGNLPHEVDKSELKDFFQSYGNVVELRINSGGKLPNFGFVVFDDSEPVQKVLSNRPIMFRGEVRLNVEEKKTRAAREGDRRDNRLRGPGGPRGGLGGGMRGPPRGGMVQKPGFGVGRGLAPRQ
Technique: RNA Bind-n-Seq
Form: RNA
Sample: in vitro
Tested at: 1 µM
Setting: whole 134-nt RNA, ends assumed
Added: 150 mM KCl
Reference: input library
Direction: higher = stronger binding
All sequences stand within: GGGAGUUCUACAGUCCGACGAUC … UGGAAUUCUCGGGUGUCAAGG
| Sequence | log2 enrichment |
| --- | --- |
| CACAGACAACACGCACCCACACAGACACAGAGGGAAGGGGUUGGGAUGGGGACAGGGUGCACUGCAGGGCGGGGUAGGACCCCAGCCCCU | -0.0537 |
| ACUAUGCAGGUGGGCAUCUUUGGGAAGUGGGGCAAGGGGGGGAUAGGGAGGGGGGUAACACUUUGGGAACAGGUGGUCCCAGGUCGUUUC | -0.567 |
| GUCCUGUGCUACACAUCGUAUGUACCGAAUCGGGGUUUUUGGGGUGGGGUUUUUGGGGAAAGUAUUAUGUUACGCCGUUCGGAUCUGCAC | 0.911 |
| GUCCUGUGCUACACAUCGUAUGUACCGAAUCGGGUUUUUUUGGGUUUUUUUGGGUGGGAAAGUAUUAUGUUACGCCGUUCGGAUCUGCAC | 0.156 |
| UGGCCCUGGUGGCAUGCGGGGAGGAAGAGGUGGCCUCAUGGAUCGUAGUGGUCCCGGUGGAAUGUUCAGAGGUGGCCGUGGUGGAGACAG | 0.656 |
| GCAGGAAGUAAAAACAAAUGGAAAUGCUUCGGAUAGUGGCAGGGGUGGGGGUUGCUAAGGAAUGGGUGGGAUGGGAGUGGGUAAAGAGUU | 0.844 |
| AGUCCUGUGCUACACAUCGUAUGUACCGAAUCGUGUGUGUGUGUGUGUGUGUGUGUGAAAGUAUUAUGUUACGCCGUUCGGAUCUGCACU | 0.156 |
| AGUCCUGUGCUACACAUCGUAUGUACCGAAUCGGAAAGGAAAAAAAGGUUUUUUUGGAAAGUAUUAUGUUACGCCGUUCGGAUCUGCACU | -0.142 |
| GUCCUGUGCUACACAUCGUAUGUACCGAAUCGGGGUUUGGGGAAAGGGGUUUUUGGGGAAAGUAUUAUGUUACGCCGUUCGGAUCUGCAC | 1.57 |
| GCAGGAACUAAAAACAAAUGGAAAUGCUUCGGAUAGUGGCAGGGGUGGGGGUUGCUAAGGAAAGGGUGGGAUGGGAGUGGGUAAAGAGUU | 1.06 |

Set 4
Target: Histone acetyltransferase KAT6A, winged helix 1, GST fusion (KAT6A, Homo sapiens, UniProt Q92794, residues 1-85)
Technique: protein binding microarray
Form: double-stranded DNA, one strand shown
Sample: in vitro
Tested at: not given
Setting: 8-mer, flanks averaged, mean of 2 arrays, mostly near background
Reference: not given
Direction: higher = stronger binding
Residues (chain): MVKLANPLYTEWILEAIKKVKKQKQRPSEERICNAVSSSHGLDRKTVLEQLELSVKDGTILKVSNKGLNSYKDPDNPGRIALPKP
| Sequence | E-score |
| --- | --- |
| GTACCCCA | -0.162 |
| ACCCTCTA | -0.0512 |
| ACTCTGCA | -0.27 |
| AACCGGCA | 0.162 |
| GACGACCC | 0.0747 |
| TATGAAAA | -0.048 |
| CGAAAAAA | -0.0969 |
| AACGGAGT | 0.175 |
| CAAGACTA | -0.167 |
| AAGCATAG | -0.148 |
| AAAGCGGC | 0.385 |
| ACCAGGCA | -0.316 |
| GCTATGCA | -0.0568 |
| TACACTCA | -0.296 |
| AAGTGCCA | -0.261 |
| CCTCTCGA | -0.0519 |
| ACTGTCCG | 0.194 |
| AAGAGCAA | -0.151 |
| TCACCCGA | 0.0714 |
| ATCCCCGG | 0.221 |
| CCCGGAGC | 0.152 |

Set 5
Target: Sal-like protein 4, full length isoform B (SALL4, Homo sapiens, UniProt Q9UJQ4-2, residues 1-616)
Technique: universal PBM
Form: double-stranded DNA, one strand shown
Sample: in vitro
Tested at: not given
Setting: 8-mer, flanks averaged, mean of replicates
Direction: higher = stronger binding
Construct (chain): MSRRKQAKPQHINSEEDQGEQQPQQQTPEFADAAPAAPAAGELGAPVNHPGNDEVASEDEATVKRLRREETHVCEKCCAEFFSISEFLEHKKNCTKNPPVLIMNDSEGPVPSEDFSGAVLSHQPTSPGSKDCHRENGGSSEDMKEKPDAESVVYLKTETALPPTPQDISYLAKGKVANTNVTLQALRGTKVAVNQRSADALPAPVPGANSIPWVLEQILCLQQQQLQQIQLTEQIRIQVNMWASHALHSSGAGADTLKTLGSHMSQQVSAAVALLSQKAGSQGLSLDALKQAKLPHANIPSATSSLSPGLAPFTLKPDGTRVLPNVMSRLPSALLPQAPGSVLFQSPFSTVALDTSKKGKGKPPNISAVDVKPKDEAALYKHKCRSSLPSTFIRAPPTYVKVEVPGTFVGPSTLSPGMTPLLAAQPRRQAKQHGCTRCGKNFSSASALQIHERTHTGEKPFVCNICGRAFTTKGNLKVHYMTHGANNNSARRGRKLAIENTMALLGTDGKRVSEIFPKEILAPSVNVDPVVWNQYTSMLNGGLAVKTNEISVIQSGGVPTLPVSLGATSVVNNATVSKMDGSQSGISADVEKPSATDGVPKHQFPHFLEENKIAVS
| Sequence | E-score |
| --- | --- |
| AAGTCCTG | -0.149 |
| AACGAGGA | -0.0261 |
| CAGTTCCC | -0.344 |
| AGGCTCTG | -0.3 |
| ACCAAAAG | 0.201 |
| GATTTCTA | 0.18 |
| GGCAATAC | 0.00133 |
| AGACAACG | -0.0483 |
| CCTATTTC | 0.136 |
| AGTATCTG | -0.0418 |
| GGCCACCC | -0.345 |
| ATGTGTAC | 0.254 |
| ATTATCCA | 0.276 |
| CCCACGAC | -0.271 |
| ATGGCAGC | 0.0456 |
| GGTCAACC | -0.296 |
| GGGTTTCA | -0.0138 |
| GATCGGTA | 0.00214 |
| CCCCTGGC | -0.288 |
| ATCACTTA | 0.231 |
| CAAGGCCA | -0.00749 |
| AAAAGGCC | -0.126 |
| ATTACCTA | 0.233 |
| CCAACCAC | 0.00686 |
| ACACATCG | 0.0433 |

Set 6
Target: CCNB3, cyclin fold, Cln2 fusion (human)
Technique: yeast growth competition, sequencing
Sample: yeast
Setting: weak parent motif
Reference: not given
Direction: higher = stronger binding
Parent: REPIN1 docking peptide (human); QSFRGWVALVLHL; partner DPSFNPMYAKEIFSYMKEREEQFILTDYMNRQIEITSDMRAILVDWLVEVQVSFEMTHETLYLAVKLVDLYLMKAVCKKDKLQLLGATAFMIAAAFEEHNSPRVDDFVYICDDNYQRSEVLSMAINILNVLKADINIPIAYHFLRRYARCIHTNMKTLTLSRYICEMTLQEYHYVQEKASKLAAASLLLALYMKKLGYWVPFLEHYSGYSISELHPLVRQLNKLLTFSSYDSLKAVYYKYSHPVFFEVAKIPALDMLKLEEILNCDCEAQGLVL
| Change | normalised enrichment score |
| --- | --- |
| QSARGWVALVLHL [F3A] | 0.535 |
| QSFRGAVALVLHL [W6A] | 0.0179 |
| QSFAGWVALVLHL [R4A] | -0.0234 |
| QSFRGWVAAVLHL [L9A] | -0.0886 |
| QSFRGWVALVLHA [L13A] | 0.477 |
| QAFRGWVALVLHL [S2A] | 0.041 |

Set 7
Target: TAR DNA-binding protein 43, full length, His tag (TARDBP, Homo sapiens, UniProt Q13148, residues 1-414)
Technique: RNA Bind-n-Seq
Form: RNA
Sample: in vitro
Tested at: 20 nM
Setting: 6-mer, flanks averaged, single round
Added: 150 mM KCl
Reference: input library
Direction: higher = stronger binding
| Sequence | 6-mer enrichment (R) |
| --- | --- |
| GCCGAC | 0.929 |
| GGUGCC | 1.38 |
| AAGGUC | 0.698 |
| CCUCAU | 0.584 |
| UAUCCA | 0.567 |
| UGCGGG | 4 |
| AUCUGG | 0.86 |
| GGCUUU | 0.84 |
| AGCUUC | 0.566 |
| CAGCCA | 0.7 |
| ACUCUU | 0.566 |
| CGUGGG | 3.5 |
| CAGAGC | 0.881 |
| UGACCC | 0.685 |
| UAAAAC | 0.624 |
| CCUGAU | 0.606 |
| CAUUGC | 0.618 |
| GGUGUC | 1.33 |
| GAUGGA | 1.46 |
| UUGGUC | 0.68 |
| GGGACC | 2.05 |
| CGUCGA | 0.826 |
| CAGUUG | 0.798 |
| UUCGCU | 0.556 |
| GGUACU | 0.877 |

For quick reference, copied from above (set 5):
| Sequence | E-score |
| --- | --- |
| GATTTCTA | 0.18 |
| GGCAATAC | 0.00133 |
| AGACAACG | -0.0483 |
| CCTATTTC | 0.136 |
| AGTATCTG | -0.0418 |
| GGCCACCC | -0.345 |
| ATGTGTAC | 0.254 |
| ATTATCCA | 0.276 |
| CCCACGAC | -0.271 |
